Literature values that unrelated publications cite.
Each line is one published result; not all experiments were run side by side. ± marks the error that the study gave.
Chain of UniProt Q15569 (whole entry, looked up): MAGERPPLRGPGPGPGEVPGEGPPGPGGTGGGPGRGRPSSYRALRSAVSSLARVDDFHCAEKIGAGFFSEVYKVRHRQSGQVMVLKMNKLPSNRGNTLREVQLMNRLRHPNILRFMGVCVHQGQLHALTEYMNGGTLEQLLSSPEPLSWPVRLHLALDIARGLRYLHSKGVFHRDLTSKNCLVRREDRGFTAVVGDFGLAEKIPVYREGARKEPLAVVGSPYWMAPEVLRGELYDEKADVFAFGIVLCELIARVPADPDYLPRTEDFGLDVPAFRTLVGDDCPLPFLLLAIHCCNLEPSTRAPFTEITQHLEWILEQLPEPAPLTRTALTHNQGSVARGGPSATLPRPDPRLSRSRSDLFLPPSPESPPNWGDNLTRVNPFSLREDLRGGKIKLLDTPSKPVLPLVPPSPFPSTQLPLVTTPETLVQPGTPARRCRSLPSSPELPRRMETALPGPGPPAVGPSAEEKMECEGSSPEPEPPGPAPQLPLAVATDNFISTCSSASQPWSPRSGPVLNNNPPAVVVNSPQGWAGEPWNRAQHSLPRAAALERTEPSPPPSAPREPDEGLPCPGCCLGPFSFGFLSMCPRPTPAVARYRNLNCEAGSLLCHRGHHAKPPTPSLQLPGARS

Structure (SMILES) | target or system | test | test system | setting | how to read | endpoint | result
CCN1CCN(Cc2ccc(Nc3ncc(F)c(-c4cc(F)c5nc(C)n(C(C)C)c5c4)n3)nc2)CC1 | – | – | human | 100 mg, single dose, tablet | – | Tmax | 5.93 h
C[C@H]1CO[C@@H]2Cn3cc(C(=O)NCc4ccc(F)cc4F)c(=O)c(O)c3C(=O)N12 | – | – | human | oral solution, median | – | Tmax | 1 h
Cc1cccc(F)c1N1CCC(N2Cc3cn(CC(C)(F)F)nc3N(Cc3ccccc3C(F)(F)F)C2=O)CC1 | – | – | human, fasted | – | – | Tmax | 1.5 h
O=C(O)[C@H]1O[C@@H](Oc2ccc([C@@H]3[C@@H](CC[C@H](O)c4ccc(F)cc4)C(=O)N3c3ccc(F)cc3)cc2)[C@H](O)[C@@H](O)[C@@H]1O | – | – | human | dose not given, added: rifampin 18 | – | Tmax | ~3 h
CNCc1cc(-c2ccccc2F)n(S(=O)(=O)c2cccnc2)c1 | – | – | human | 20 mg, single dose | – | Tmax | 1.5 h
COc1cc2c(Oc3ccc4[nH]c(C)cc4c3F)ccnc2cc1OCC1(N)CC1 | – | – | human, fasted | oral, 5 mg | – | Tmax | 9.3 ± 5.1 h
Cc1cc(C)c(CNC(=O)c2cc(Cl)c3c(c2C)O[C@@](C)([C@H]2CC[C@H](N(C)C)CC2)O3)c(=O)[nH]1 | – | – | human, plasma | oral, 50 mg single dose, study, median | – | Tmax | 3.5 h
Cc1ccccc1CN1C(=O)C2=C(CCN(Cc3ccccc3)C2)N2CCN=C12 | – | – | human | 625 mg once daily, added: rabeprazole 20 mg | – | Tmax | 1 h
Nc1cc(C(F)(F)F)c(-c2nc(N3CCOCC3)nc(N3CCOCC3)n2)cn1 | TESK1 (Homo sapiens, UniProt Q15569) | enzyme activity | – | 10 µM | baseline: untreated | remaining activity | 83%

A few entries again:
Structure (SMILES) | target or system | test | test system | setting | how to read | endpoint | result
C[C@H]1CO[C@@H]2Cn3cc(C(=O)NCc4ccc(F)cc4F)c(=O)c(O)c3C(=O)N12 | – | – | human | oral solution, median | – | Tmax | 1 h
